# Measurements from different studies.
# Lines come from different studies, so protocols differ. Numbers after ± are the reported error.
SMILES,tested on,assay,system,setting,endpoint,result
CCOC(=O)C1(Cc2ccc(C#N)cc2F)Oc2cc(F)ccc2N(Cc2ccc(C#N)cc2F)C1=O (stereo not shown),Arabidopsis thaliana,"root length, petri dish germination","Col-0, 1/2 MS medium","50 µg/mL, 7 days, 22 °C, dark",inhibition,30.1%
C[C@H](NC(=O)[C@@H](O)c1cc(F)cc(F)c1)C(=O)N[C@@H]1C(=O)N(C)c2ccccc2-c2ccccc21,dengue virus 2,"viral infection, luciferase reporter virus",,"30 nM, 48 h",inhibition,99.6%
O=C1NC2(CC2)COc2ncc(F)cc2[C@H]2COCCN2c2ccn3ncc1c3n2,,,"Sprague-Dawley rat, female, serum","oral, 5 mg/kg/day, end of treatment, 4-week repeated-dose toxicity",albumin/globulin ratio,1.49 ± 0.17
CC(=O)c1c(O)c(C)c(O)c2c1OC1=CC(=O)C(=C(C)NCCCCOC3OC4OC5(C)CCC6C(C)CCC(C3C)C46OO5)C(=O)C12C (mixture of isomers),Plasmodium berghei,parasitaemia,"ANKA GFP, mouse NMRI","intraperitoneal, 4 × 50 mg/kg, day 4 post infection",inhibition,99.6%
O=C(NNc1ccccc1)c1nnc(C23CC4CC(CC(C4)C2)C3)o1,Botryosphaeria dothidea,"fungal growth, inhibitor",,50 µg/mL,inhibition,100%
Cc1ccc(N2CC3CC(C2)N3C)cc1C(=O)NC1(c2ccc3c4c(cccc24)C(=O)N3C)CC1,Betacoronavirus 1,viral replication,"Huh-7, OC43",12.5 µM,inhibition,0%
CCOC(=O)C1(C)Oc2cc(F)ccc2N(C)C1=O (stereo not shown),Arabidopsis thaliana,"root length, petri dish germination","Col-0, 1/2 MS medium","200 µg/mL, 7 days, 22 °C, dark",inhibition,100%
CC(C)C[C@H](NC(=O)[C@@H](N)CCCNC(=N)N)C(=O)N[C@@H](CCCNC(=N)N)C(=O)N[C@@H](Cc1c[nH]c2ccccc12)C(=O)N1CCC[C@H]1C(=O)N[C@@H](CCCNC(=N)N)C(=O)N1CCC[C@H]1C(=O)N[C@@H](CCCNC(=N)N)C(=O)N[C@@H](Cc1c[nH]c2ccccc12)C(=O)N[C@@H](CCCNC(=N)N)C(=O)N[C@@H](CCCCN)C(=O)N1CCC[C@H]1C(=O)N1CCC[C@H]1C(=O)O,Candida albicans,growth,"ATCC 10231, potato dextrose broth","128 µM, 30 °C",inhibition,1 fraction (0-1)
CC(=O)c1c(O)c(C)c(O)c2c1OC1=CC(=O)C(=C(C)NCCCC(=O)OC3OC4OC5(C)CCC6C(C)CCC(C3C)C46OO5)C(=O)C12C (stereo not shown),Plasmodium berghei,parasitaemia,"ANKA GFP, mouse NMRI","intraperitoneal, 4 × 50 mg/kg, day 4 post infection",inhibition,99.7%
CCOC(=O)C1(Cc2cc(F)cc(F)c2)Oc2cc(F)ccc2N(Cc2cc(F)cc(F)c2)C1=O (stereo not shown),Arabidopsis thaliana,"root length, petri dish germination","Col-0, 1/2 MS medium","200 µg/mL, 7 days, 22 °C, dark",inhibition,52.9%
